Assay results collected from several papers.
A part holds a random share of what one study measured.

Sample 1 — technique: aptamer microarray, sandwich; molecule type: DNA with 2'F-ANA; medium: in vitro; concentration: 200 nM; with: Cy3 exosite-II aptamer, 400 nM; direction: higher = stronger binding; endpoint: mean fluorescence intensity; strand: GGTTGGTGTGGTTGG
Target: Prothrombin, mature alpha-thrombin (F2, Homo sapiens, UniProt P00734)
Setting: whole 15-mer aptamer, many near background
2'F-ANA at 1 3 4 8 12 13 14: 88.6 a.u.
2'F-ANA at 1 2 5 6 7 8 10 11 13: 58.2 a.u.
2'F-ANA at 4 6 7 10 11 14 15: 59.7 a.u.
2'F-ANA at 4 5 6 10 12 14: 46.1 a.u.
2'F-ANA at 4 5 6 10 12 15: 58.7 a.u.
2'F-ANA at 1 2 6 7 11 13: 197 a.u.
2'F-ANA at 4 5 6 7 8 9 11 12 13: 80.7 a.u.
2'F-ANA at 3 4 9 11 13 15: 523 a.u.
2'F-ANA at 1 3 5 6 9 10 11 12 13 14: 45.1 a.u.
2'F-ANA at 1 3 4 6 8 9 10 13 14: 55.7 a.u.
2'F-ANA at 1 2 6 9 11 12 14 15: 64.5 a.u.
2'F-ANA at 5 6 9 11 12 14 15: 49.6 a.u.
2'F-ANA at 3 5 6 8 10 12 13 14 15: 58.7 a.u.
2'F-ANA at 3 4 6 7 9 13 15: 368 a.u.
2'F-ANA at 2 4 7 9 11 15: 242 a.u.
2'F-ANA at 1 5 10 13 15: 47.7 a.u.
2'F-ANA at 1 2 3 4 5 6 7 8 10 13 14: 49.1 a.u.
2'F-ANA at 2 3 4 5 6 10 11 12: 56.8 a.u.
2'F-ANA at 1 2 3 6 7 8 9 10 13 14: 91.3 a.u.
2'F-ANA at 4 6 9 11 12 13 15: 252 a.u.
2'F-ANA at 1 8 12 14 15: 75.7 a.u.
2'F-ANA at 3 4 5 9 13 15: 62.6 a.u.

Sample 2 — technique: RNAcompete; molecule type: RNA; medium: in vitro; concentration: 20 nM; setting: 7-mer, probes averaged, single round; baseline: mean of 7-mers; direction: higher = stronger binding; endpoint: 7-mer Z-score
Target: PABPC1L2, full length, GST fusion (mouse, UniProt A0ABA7IW68)
Target sequence (chain): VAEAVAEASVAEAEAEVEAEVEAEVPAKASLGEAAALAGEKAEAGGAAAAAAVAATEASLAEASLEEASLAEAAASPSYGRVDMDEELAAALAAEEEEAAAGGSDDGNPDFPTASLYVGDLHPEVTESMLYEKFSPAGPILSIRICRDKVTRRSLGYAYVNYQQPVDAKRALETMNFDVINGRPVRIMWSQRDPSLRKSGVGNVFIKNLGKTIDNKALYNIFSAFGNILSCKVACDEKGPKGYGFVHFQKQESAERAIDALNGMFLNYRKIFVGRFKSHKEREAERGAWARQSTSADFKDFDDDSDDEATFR
CCGGUAA: 0.151
UUCAUAU: -0.151
UGAACAG: -0.0228
CUCCCUU: -0.329
UACACAU: -0.166
GAGUCAC: -0.166
AUGCGCC: -0.224
ACGGCAC: 0.137
UUGCACU: -0.248
CUGGUUG: -0.238
GUCGUUC: -0.489
AUCAGUU: -0.206
UCAUCUA: -0.204
AGGACGC: 0.164
UCGCCAG: -0.378
GCAGCAG: 0.131
CAGGGGC: 0.251
UUCAAAA: 1.8
ACUCAAC: -0.05
AUCCAAC: -0.0645
GAGGUAU: -0.106
CCGGCUU: -0.322
ACCACAA: 0.171
UCAUCAU: -0.307
AUACGUG: -0.106

Sample 3 — technique: RNA Bind-n-Seq; molecule type: RNA; medium: in vitro; concentration: 365 nM; baseline: no-protein control; direction: higher = stronger binding; endpoint: RBNS enrichment (R)
Target: RNA binding protein fox-1 homolog 2, RRM domain, GST-SBP tag (RBFOX2, Homo sapiens, UniProt O43251-10, residues 100-194)
Setting: natural RNA segment, single round, ends assumed
Shared flanks, not repeated: GGGAGUUCUACAGUCCGACGAUC … UGGAAUUCUCGGGUGCCAA
Construct (chain): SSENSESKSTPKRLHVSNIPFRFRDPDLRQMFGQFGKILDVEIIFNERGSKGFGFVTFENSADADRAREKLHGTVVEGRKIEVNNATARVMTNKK
GGUUUAAUAUUUGCAUUUUCGUGCUUUUAUUUUCUCCUUCCAUUCAUAAGUAUAUACUUGAAAGUACAUCUGUAGCCUAUGAUUUGAGUCUCUUGAAGUUCUAGGAAGAG: 0.317
AAGCGGCCCUGGUUGAAUCUGGCAAUUCUUUUUGCCAAGAUCCCUAGCAGAAGAUUUAGCCAUGUCCUUCCCCUCACUUGUGUGAGUGGCCCCUUCUGAAUCUCUCCAGC: 0.232
CCCCGGAAUGAGCCGCCCCACCCACCCCAAGGCUGGAGCCGCUGCACCCUGCUGUCCCUCUCCAGGCCUUGGCAAUGACGAUCCCCCAAAGAGCCCGUCUGCACCCCAGA: 0.449
GUUUCUUCUGGAGAAUUGGAACAUGUGUGGCCCCAAGCUCAACAGAAACCAGUUGUUCCCAAUCUGCCGUUACCAUCAACGCACUGUUGCAUAUGCCAGCCACUGCGCUU: 0.624
CUCUACUACUGGAUGAAAUGUCUGCAUUUCCACCAAAAUCUACCCAGUCACCCAGGGAAUAACAACUUAAGCUGUAGUUAGAUAACACCUAGUGAUUAAUUGGCUGAGAA: 0.301
UAAUUUUUGGGUUGGGGAGCCAGCUUGGGGUGGGGAAUUUUCACCUGGGCCUCCGCUCUUUAACUAUAUAAACAUUUAUCUGUAUAUCUAUGUCCCUGUCUGGGGGGCAG: 0.577
UUGUACUCAAUGGUAUCAUUACAAUUUUCUGUAAGAGAAAAUAUUACUUAUUUAUCCUAGUAUUCCUAACCUGUCAGAAUAAUAAAUAUUGGAACCAAGACAUGGUAAAC: 0.529
UCUGAGUGUGAGGGGUUUCAUUUCUAUGGCUAAUCCCCAAAGCUGUAACACAUAGGGCAGGUACCUACUGAGGCACCCAGGCUUCUAAAAACUGUUCUCAGGACCUUGGG: 0.282
UUUUGUAAUUUUAGGUAGUUAUCAGUUUCUCCACUAGCUCCAUGUUCUAGCUUUUUCCUCCCCACAGGACCUUGGGUAAAAUGGUCAUUUGUAAGGUGAAUUUCAAAGGG: 0.596
UGUUUUAUUGCCACAGAAAUUCUCUUUAAGAUCUGAGCUCUCCUGGUAAGAGUCUUUAUUAAAGUUUUAAGUGUCUAAAGGGACUGUCCACGCCUGUACAUUUCAGAUGG: 0.356
UGAUGAAGAACUACUUAAAACUAACAGUUAAAAUCAGCUUGCCUCCCCUAGUAGAAGCAGGUUCUUGGAAGUUACAAUUUAAGGUACCCCCAAAAAGUUGGAAAUAAAAG: 0.268
AGAUCACUGACUUCUCUUUAACUGUCCUGAGCUACAUCACGCCCACAAAUCUGUCUUUCAUACCACUCUAUCUGCCAUUCAUUCUUGUUAAAUGAGGCAUUGUUUUCUUU: 0.779

Sample 4 — technique: RNA Bind-n-Seq; molecule type: RNA; medium: in vitro; concentration: 1 µM; setting: whole 134-nt RNA, ends assumed; with: 150 mM KCl; baseline: input library; direction: higher = stronger binding; endpoint: log2 enrichment
Target: Ras GTPase-activating protein-binding protein 1, RRM domain (G3BP1, Homo sapiens, UniProt Q13283)
Sequence of UniProt Q13283 (whole entry, looked up): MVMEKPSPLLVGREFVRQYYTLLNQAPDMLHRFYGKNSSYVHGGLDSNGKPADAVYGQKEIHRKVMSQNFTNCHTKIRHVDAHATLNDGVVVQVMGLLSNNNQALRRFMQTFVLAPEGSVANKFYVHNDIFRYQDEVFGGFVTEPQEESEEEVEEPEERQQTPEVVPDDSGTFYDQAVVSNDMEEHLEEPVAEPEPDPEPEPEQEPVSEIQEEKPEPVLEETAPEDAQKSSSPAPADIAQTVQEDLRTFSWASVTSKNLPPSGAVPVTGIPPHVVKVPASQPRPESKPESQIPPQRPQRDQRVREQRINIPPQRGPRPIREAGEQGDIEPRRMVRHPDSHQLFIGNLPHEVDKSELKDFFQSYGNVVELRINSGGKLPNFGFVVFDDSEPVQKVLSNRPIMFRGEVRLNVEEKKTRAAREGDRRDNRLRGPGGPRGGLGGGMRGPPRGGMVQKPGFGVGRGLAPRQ
Shared flanks, not repeated: GGGAGUUCUACAGUCCGACGAUC … UGGAAUUCUCGGGUGUCAAGG
UCAAGUCCUGUGCUACACAUCGUAUGUACCGAAUCGGUGGUUUUUGGAAAAAGGAAAGUAUUAUGUUACGCCGUUCGGAUCUGCACUUCC: -0.0688
UGGCCCUGGUGGCAUGCGGGGAGGAAGAGGUGGCCUCAUGGCUCGUGGUGGUCCCGGUGGAAUGUUCAGAGGUGGCCGUGGUGGAGACAG: 0.278
UGGGAGGUGGAUUUUGUUUAUUUUUUUAGCUCAUUUACAGGGGUGGGAAUUUUUUUUUAAUAUGUGUCAUGAAUAAAGUUGUUUUUGAAA: 1.58
AAGUCCUGUGCUACACAUCGUAUGUACCGAAUCGGGUUUUUUUGGGAAAGGGAGGGAAAGUAUUAUGUUACGCCGUUCGGAUCUGCACUU: 0.464
AGUCACUUUUUAAUUUUAUUUAUUAUUUCUCCUCUUAGACCGCAGGAUGGAAACAAGCCCACUGAGACUAGUCAACCUCAAUCUAGCACA: -1.29
UUGACCGGAGCGGCCGUCACUUUGGUACAAUCCUCAAUUACCUGCGGGAUGGGUCUGUGCCACUGCCGGAGAGUACGAGAGAACUGGGGG: -0.489
CACAGACAACACGCACCCACACAGACACAGAGGGAAGGGGUUGGGAUGGGGACAGGGUGCACAGCAGGGCGGGGUAGGACCCAAGCCCCU: -0.412
UAACUUUAGAGGAGGAUCUGAUGGAUAUGGCAGUGGACGUGGAUUUGGGGAUGGCUAUAAUGGGUAUGGAGGAGGACAUGGAGGUGGCAA: -0.415
CACAGACAACACGUACCCACACAGACACAGAGGGAAGGGGUUGGGAUGGGGACAGGGUGCACAGCAGGGCGGGGUAGGACCCCAGCCCCU: 0.0319
UCAAGUCCUGUGCUACACAUCGUAUGUACCGAAUCGGUUUGGUGGUUUUUUUGGAAAGUAUUAUGUUACGCCGUUCGGAUCUGCACUUCC: -0.221
UAACUUUAGAGGAGGAUCUGAUGGAUAUGGCAGUGGACGUGGAUUUGGGGAUGGCUAGAAUGGGUAUGGAGGAGGACCUGGAGGUGGCAA: -0.254
UCCUGUGCUACACAUCGUAUGUACCGAAUCGGCCCCCCGGGCCCCCCGGGCCCCCCGGGAAAGUAUUAUGUUACGCCGUUCGGAUCUGCA: -0.442
GCAGGAAGUAAAAACAAAUGGAAAUGCUUCGGAUAGUGGCAGGGGUGGGGGUUGCUAAGGAGAGGGUGGGAUGGGAGUGGGUAAAGAGUU: 0.899
UCAAGUCCUGUGCUACACAUCGUAUGUACCGAAUCGGUUUUUGGAGGAAAAAGGAAAGUAUUAUGUUACGCCGUUCGGAUCUGCACUUCC: -0.2

Sample 5 — technique: universal PBM; molecule type: double-stranded DNA, one strand shown; medium: in vitro; concentration: 600 nM; direction: higher = stronger binding; endpoint: E-score
Target: Sal-like protein 4, full length isoform A (SALL4, Homo sapiens, UniProt Q9UJQ4, residues 1-1053)
Sequence of UniProt Q9UJQ4 (whole entry, looked up): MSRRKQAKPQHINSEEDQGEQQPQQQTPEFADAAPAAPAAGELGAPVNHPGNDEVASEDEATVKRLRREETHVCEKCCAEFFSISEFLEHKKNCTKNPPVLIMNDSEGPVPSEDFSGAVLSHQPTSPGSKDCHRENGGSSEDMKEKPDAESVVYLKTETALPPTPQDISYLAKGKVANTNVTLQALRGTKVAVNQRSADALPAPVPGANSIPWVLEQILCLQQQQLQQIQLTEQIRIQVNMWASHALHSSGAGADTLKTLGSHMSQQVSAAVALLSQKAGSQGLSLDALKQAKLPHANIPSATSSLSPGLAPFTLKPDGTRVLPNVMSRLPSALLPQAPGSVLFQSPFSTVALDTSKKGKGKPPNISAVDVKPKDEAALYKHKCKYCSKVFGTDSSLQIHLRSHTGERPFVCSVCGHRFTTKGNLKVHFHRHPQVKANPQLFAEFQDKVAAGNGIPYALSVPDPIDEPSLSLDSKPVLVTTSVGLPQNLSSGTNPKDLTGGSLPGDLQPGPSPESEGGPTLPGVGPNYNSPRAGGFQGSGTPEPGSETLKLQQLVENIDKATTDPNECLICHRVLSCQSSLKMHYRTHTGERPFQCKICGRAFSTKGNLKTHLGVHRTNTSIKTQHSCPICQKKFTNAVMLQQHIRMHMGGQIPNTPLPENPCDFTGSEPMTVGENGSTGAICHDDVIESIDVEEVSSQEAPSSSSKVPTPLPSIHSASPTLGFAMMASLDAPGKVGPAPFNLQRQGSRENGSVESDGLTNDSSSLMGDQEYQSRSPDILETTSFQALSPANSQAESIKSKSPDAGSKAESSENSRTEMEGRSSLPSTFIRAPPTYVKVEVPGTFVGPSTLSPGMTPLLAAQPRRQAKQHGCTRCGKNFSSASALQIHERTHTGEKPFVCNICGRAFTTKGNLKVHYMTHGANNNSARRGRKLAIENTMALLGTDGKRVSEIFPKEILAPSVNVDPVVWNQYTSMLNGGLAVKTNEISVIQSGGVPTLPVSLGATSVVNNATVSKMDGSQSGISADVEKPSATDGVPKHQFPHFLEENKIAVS
Setting: 8-mer, flanks averaged, mean of replicates
AAATGGCA: 0.138
GGTAGGCA: -0.116
ATATTTGC: 0.342
ATCATGGG: -0.13
CCTCGAGC: -0.211
ACACTTCA: 0.161
ACGAAGCC: -0.157
ATGCAATA: 0.281
CCCGTGAG: -0.301
TCTAGCAA: 0.102
AAAAGAAC: 0.0436
AGGATCCC: -0.264
AGGGACTC: -0.209
ATTACAAC: 0.244
CACCGGAG: -0.267
GCTGGTTA: 0.0478
ACAGATCC: 0.0184
CCTCGCTC: -0.0755
ATTCCACC: 0.0319
CGTTTTAA: 0.169

A few entries again (sample 2):
UGAACAG: -0.0228
CUGGUUG: -0.238
GUCGUUC: -0.489
UUCAAAA: 1.8
UUCAUAU: -0.151
AGGACGC: 0.164
UCAUCAU: -0.307
ACUCAAC: -0.05
AUACGUG: -0.106
CCGGCUU: -0.322
AUCCAAC: -0.0645
CAGGGGC: 0.251
CUCCCUU: -0.329
